Assay results collected from several papers.
Each numbered part is a random draw from the data of one study; scales do not carry over between parts.
UniProt O95747, sequence (whole entry, looked up): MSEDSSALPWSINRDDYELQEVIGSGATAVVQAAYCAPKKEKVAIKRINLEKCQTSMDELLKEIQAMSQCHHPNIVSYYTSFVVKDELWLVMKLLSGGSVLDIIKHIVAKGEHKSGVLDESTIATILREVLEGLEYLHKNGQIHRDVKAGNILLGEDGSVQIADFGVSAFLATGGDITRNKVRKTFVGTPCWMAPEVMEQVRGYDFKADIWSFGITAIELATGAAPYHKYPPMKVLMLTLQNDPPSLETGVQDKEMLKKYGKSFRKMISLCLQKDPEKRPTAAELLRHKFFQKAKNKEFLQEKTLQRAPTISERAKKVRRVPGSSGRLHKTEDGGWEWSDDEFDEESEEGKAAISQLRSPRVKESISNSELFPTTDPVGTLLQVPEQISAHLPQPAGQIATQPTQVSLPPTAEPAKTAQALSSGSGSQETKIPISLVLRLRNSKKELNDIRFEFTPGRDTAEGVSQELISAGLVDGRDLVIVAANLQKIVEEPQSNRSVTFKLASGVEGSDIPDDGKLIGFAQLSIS
UniProt P05771, sequence (whole entry, looked up): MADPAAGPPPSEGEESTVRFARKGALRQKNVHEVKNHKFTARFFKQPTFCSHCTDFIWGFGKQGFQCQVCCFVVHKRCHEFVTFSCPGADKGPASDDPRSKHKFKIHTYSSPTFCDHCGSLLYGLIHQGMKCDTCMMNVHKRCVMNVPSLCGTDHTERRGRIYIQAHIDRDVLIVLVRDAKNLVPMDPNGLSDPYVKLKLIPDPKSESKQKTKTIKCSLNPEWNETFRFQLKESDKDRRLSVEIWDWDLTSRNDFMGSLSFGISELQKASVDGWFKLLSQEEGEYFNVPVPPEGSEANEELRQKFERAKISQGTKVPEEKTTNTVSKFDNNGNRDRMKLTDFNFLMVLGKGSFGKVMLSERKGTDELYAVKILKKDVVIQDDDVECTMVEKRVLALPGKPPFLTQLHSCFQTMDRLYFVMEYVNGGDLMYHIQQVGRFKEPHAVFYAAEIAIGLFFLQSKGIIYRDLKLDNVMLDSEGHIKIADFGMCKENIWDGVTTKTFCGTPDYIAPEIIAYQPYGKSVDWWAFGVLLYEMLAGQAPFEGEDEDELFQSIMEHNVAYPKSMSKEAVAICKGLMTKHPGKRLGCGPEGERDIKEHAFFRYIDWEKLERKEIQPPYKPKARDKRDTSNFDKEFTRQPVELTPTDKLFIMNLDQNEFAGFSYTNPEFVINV
UniProt Q15831, sequence (whole entry, looked up): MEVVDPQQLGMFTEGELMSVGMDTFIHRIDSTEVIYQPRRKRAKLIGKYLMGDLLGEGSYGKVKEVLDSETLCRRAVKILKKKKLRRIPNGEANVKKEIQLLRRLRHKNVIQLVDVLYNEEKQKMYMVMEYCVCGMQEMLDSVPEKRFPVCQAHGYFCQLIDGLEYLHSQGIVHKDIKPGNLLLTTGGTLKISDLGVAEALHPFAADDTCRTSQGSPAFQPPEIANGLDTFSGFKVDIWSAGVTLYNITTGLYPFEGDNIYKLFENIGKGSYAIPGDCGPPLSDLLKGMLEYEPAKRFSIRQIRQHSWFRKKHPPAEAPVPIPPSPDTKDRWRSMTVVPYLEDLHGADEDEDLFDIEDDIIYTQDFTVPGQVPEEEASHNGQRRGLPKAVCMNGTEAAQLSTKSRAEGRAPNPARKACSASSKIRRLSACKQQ
UniProt Q13976, sequence (whole entry, looked up): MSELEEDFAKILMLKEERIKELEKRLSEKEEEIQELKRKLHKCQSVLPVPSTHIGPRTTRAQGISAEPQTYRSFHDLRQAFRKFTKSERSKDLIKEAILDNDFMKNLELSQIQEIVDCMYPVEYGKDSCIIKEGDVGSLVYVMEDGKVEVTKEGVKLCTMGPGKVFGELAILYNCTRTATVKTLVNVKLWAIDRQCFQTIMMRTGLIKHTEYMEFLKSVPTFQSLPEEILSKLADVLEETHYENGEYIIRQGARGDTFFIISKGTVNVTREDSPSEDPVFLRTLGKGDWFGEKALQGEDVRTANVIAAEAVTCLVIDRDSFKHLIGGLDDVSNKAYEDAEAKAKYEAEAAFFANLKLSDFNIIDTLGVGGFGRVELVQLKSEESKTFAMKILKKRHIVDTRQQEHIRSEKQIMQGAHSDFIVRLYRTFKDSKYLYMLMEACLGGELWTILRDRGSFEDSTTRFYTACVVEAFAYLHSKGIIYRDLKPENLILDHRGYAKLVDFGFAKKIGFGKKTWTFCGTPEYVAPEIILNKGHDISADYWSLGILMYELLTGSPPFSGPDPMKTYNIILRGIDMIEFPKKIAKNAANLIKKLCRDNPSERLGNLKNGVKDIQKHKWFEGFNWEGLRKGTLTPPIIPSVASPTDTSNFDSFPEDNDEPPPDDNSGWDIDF
UniProt Q99759, sequence (whole entry, looked up): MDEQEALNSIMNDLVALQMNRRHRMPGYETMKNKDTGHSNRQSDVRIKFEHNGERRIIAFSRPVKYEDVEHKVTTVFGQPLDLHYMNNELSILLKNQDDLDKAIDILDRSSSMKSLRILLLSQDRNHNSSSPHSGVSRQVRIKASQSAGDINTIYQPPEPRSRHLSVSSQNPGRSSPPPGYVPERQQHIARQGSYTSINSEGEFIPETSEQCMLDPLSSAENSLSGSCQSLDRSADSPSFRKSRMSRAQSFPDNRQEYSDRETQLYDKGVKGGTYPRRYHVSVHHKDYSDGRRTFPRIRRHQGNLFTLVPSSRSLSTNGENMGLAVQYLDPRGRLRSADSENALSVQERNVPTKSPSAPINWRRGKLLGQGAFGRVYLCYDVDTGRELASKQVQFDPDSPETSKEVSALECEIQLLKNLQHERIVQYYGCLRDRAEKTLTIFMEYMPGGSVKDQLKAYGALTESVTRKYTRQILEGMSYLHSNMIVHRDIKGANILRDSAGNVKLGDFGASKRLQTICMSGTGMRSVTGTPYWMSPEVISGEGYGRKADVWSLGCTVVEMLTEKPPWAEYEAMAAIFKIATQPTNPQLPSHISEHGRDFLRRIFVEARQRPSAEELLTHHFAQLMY
UniProt Q00535, sequence (whole entry, looked up): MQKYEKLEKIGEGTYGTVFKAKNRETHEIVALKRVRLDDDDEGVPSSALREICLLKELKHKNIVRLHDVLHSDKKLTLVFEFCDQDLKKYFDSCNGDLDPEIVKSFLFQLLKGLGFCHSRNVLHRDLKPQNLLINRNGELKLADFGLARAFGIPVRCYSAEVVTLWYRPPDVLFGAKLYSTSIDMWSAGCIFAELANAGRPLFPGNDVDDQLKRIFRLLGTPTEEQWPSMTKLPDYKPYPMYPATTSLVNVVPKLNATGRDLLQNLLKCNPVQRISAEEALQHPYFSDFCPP
UniProt O96017, sequence (whole entry, looked up): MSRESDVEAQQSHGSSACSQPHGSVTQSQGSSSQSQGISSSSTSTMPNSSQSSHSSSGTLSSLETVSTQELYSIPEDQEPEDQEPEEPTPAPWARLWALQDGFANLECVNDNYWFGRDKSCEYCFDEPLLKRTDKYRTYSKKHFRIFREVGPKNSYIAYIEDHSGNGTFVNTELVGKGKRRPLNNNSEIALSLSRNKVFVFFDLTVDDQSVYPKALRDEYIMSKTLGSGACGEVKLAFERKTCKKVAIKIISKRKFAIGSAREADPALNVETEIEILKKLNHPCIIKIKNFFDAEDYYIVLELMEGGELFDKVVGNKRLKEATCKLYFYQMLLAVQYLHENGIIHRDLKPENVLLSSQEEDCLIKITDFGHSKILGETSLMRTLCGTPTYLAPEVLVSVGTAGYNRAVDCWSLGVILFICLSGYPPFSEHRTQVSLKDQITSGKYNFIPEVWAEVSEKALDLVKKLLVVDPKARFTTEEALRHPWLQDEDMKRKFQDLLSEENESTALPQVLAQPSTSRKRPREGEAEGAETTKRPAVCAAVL
UniProt Q13557, sequence (whole entry, looked up): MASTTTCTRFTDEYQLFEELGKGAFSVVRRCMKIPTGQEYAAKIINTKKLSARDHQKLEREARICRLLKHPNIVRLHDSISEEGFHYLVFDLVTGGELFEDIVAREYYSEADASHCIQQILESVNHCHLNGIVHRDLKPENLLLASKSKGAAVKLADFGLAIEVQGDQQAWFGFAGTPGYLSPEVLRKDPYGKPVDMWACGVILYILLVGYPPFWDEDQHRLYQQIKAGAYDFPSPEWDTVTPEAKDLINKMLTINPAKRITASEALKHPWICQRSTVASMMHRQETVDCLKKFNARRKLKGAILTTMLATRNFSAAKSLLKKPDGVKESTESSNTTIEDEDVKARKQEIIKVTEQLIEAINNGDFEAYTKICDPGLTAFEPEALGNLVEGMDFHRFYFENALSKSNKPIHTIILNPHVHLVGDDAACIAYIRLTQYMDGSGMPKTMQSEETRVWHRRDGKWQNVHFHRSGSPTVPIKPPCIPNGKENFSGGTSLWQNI

Sample 1 — cell line: HEK-293T/ACE2; method: Hoechst nuclei count; concentration: concentration not given; time: 16 (unit not given); reference: vehicle
Compound	viability
O=C(O[C@H]1CN2CCC1CC2)N1CCc2ccccc2[C@@H]1c1ccccc1	98.3%
CC(=O)Oc1ccc(C(c2ccc(OC(C)=O)cc2)c2ccccn2)cc1	99.2%
O=C1CC[C@@]2(O)[C@H]3Cc4ccc(O)c5c4[C@@]2(CCN3CC2CC2)[C@H]1O5	97.1%
CC(C)c1nc(N(C)S(C)(=O)=O)nc(-c2ccc(F)cc2)c1/C=C/[C@@H](O)C[C@@H](O)CC(=O)O	95.2%
Cc1ccc(Nc2nccc(N(C)c3ccc4c(C)n(C)nc4c3)n2)cc1S(N)(=O)=O	86.3%
CN(C)CCCC1(c2ccc(F)cc2)OCc2cc(C#N)ccc21 (centres unmarked)	102%
COc1cccc2c1C(=O)c1c(O)c3c(c(O)c1C2=O)C[C@@](O)(C(C)=O)C[C@@H]3O[C@H]1C[C@H](N)[C@H](O)[C@H](C)O1	75.1%
NCCCNCCSP(=O)(O)O	99.3%
COc1ccc(CN=c2[nH]c(N3CCC[C@H]3CO)ncc2C(=O)NCc2ncccn2)cc1Cl	106%
Cc1c(O)cccc1C(=O)N[C@@H](CSc1ccccc1)[C@H](O)CN1C[C@H]2CCCC[C@H]2C[C@H]1C(=O)NC(C)(C)C	93.6%
NC(=O)OCC(COC(N)=O)c1ccccc1	104%
CN1CCc2nc(C(=O)N[C@@H]3C[C@@H](C(=O)N(C)C)CC[C@@H]3NC(=O)C(=O)Nc3ccc(Cl)cn3)sc2C1	104%
NC(=O)Cc1cccc(C(=O)c2ccccc2)c1N	97%
CCCN(CCC)CCc1cccc2c1CC(=O)N2	99.5%
Cc1ccc(C(=O)c2ccc(CC(=O)O)n2C)cc1	101%
COC(=O)[C@@H]1CC2=CC(=O)CC[C@]2(C)[C@@]23O[C@@H]2C[C@@]2(C)[C@@H](CC[C@@]24CCC(=O)O4)[C@H]13	99.9%
C[C@@](Cc1ccc(O)c(O)c1)(NN)C(=O)O	106%
N#CC1(c2ccc(NC(=O)c3cccnc3NCc3ccncc3)cc2)CCCC1	95.3%
C[N+](C)(C)CC(=O)O	102%

Sample 2 — cell line: HEK-293T-ACE2-TMPRSS2; method: cell count; concentration: concentration not given
SMILES	viability [%]
CCN(CC)S(=O)(=O)N1CCC(C(=O)Nc2cccc(CCc3nc4cc(C)ccc4[nH]3)c2)CC1	66
Cc1oc2ncnc(N3CCCC(C(=O)N4CCC5(CC4)OCCO5)C3)c2c1C (centres unmarked)	70
CC(=O)N[C@@H]1CN(C(=O)CCc2c[nH]c3ccccc23)C[C@H]1CO	109
C=CC(=O)N1CN(C(=O)C=C)CN(C(=O)C=C)C1	77
Cc1nn(-c2ccc(-c3noc(C4CC4)n3)cc2)cc1C(=O)Nc1ccc2c(c1)OCCO2	75
CC(C)(C)OC(=O)N1CCN(c2ncnc3sccc23)CC1	198
CC(C)CN1CC(C(=O)NCc2nncn2C2CCCCC2)CC1=O (centres unmarked)	100
CN1CCN(CCNC(=O)Nc2ccccc2-c2ccccc2)CC1	69
CCCc1nc(-c2cc3cccc(C)c3nc2NCCN2CCc3ccccc3C2)no1	68
CC1CCN(CCCNC(=O)c2ccc(-c3cc(N4CCCC4)ncn3)cc2)CC1	112
COc1ccc(CCNC(=O)C2CCN(c3ncnc4oc(C)c(C)c34)CC2)c(OC)c1	76
CN(CCCNC(=O)c1ccc(Nc2cc(-c3ccc(F)cc3)ncn2)cc1)c1ccccc1	73
CCOC(=O)c1nc(NCCCN2CCN(c3cc(C)ccc3C)CC2)c2ccccc2n1	83
c1cnc2c(-n3nc(C4CC4)nc3-c3csnn3)cccc2c1	73
O=C(C1CCCCC1)N1C[C@@H](CO)[C@H](c2ccncc2)C1	105
Cc1cccc(N2CCN(C(=O)c3cc4occc4c(Nc4ccc(F)cc4)n3)CC2)c1C	66
CCOC(=O)c1cnn(-c2ccc(C(=O)NCC3CCN(Cc4ccc(Cl)cc4)CC3)cc2)c1N	67
CCOC(=O)CNC(=O)Nc1ccc2c(c1)CCN2S(=O)(=O)c1ccccc1	77
COC[C@@H]1CN(C(=O)c2cc(C3CC3)[nH]n2)C[C@H]1c1nc(C2CC2)no1	104
Cc1ccc(/C(C#N)=C2\C=C(Br)C(=NO)C=C2Cl)cc1	99

Sample 3 — read-out: enzyme activity; mode: inhibitor; concentration: 0.5 µM; reference: control
SMILES: CCn1cnc2c(Nc3cccc(Cl)c3)nc(N[C@H]3CCCC[C@H]3N)nc21
target	remaining activity
cAMP-dependent protein kinase catalytic subunit alpha (PRKACA, Homo sapiens, UniProt P17612)	102%
cGMP-dependent protein kinase 1, isoform beta (PRKG1, Homo sapiens, UniProt Q13976)	91.8%
Serine/threonine-protein kinase Chk2 (CHEK2, Homo sapiens, UniProt O96017)	79.9%
Mitogen-activated protein kinase kinase kinase 3 (MAP3K3, Homo sapiens, UniProt Q99759)	103%
Serine/threonine-protein kinase OSR1 (OXSR1, Homo sapiens, UniProt O95747)	92.3%
Mitogen-activated protein kinase 9 (MAPK9, Homo sapiens, UniProt P45984)	102%
Cyclin-dependent kinase 5, with p25 (CDK5, Homo sapiens, UniProt Q00535)	5.16%
Calcium/calmodulin-dependent protein kinase type II subunit delta (CAMK2D, Homo sapiens, UniProt Q13557)	89%
Death-associated protein kinase 1 (DAPK1, Homo sapiens, UniProt P53355)	79.1%
Serine/threonine-protein kinase STK11 (STK11, Homo sapiens, UniProt Q15831)	78%
Protein kinase C beta type, isoform beta-I (PRKCB, Homo sapiens, UniProt P05771)	106%

Sample 4 — read-out: cell-free assay; method: competition with immobilised ligand; concentration: 1 µM
Target: Calcium-dependent protein kinase 1 (CDPK1, Plasmodium falciparum, UniProt P62344)
UniProt P62344, sequence (whole entry, looked up): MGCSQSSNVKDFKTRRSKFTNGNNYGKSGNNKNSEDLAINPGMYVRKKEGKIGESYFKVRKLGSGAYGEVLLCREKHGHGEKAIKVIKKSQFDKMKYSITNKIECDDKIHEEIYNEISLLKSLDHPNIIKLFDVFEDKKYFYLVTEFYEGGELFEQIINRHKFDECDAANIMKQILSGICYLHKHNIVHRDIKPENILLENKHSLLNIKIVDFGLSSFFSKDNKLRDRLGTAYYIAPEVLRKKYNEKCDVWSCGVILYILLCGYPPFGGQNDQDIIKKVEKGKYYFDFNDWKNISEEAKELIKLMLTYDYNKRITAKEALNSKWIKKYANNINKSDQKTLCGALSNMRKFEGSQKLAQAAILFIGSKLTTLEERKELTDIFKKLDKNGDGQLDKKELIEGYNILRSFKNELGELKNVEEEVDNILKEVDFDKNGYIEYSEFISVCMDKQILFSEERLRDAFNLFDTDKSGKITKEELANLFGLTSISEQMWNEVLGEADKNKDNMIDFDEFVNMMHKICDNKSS
SMILES	remaining binding
NS(=O)(=O)c1cc(NC(=O)C2(c3ccccc3Cl)CC2)ccc1Oc1cccc(Cl)c1	89%
C[C@H](NC(=O)c1cnc2n1[C@](C)(Cc1ccc(C#N)cc1)C(=O)N2c1cc(Cl)c(F)c(Cl)c1)C(=O)NC1(c2ccccn2)CC1	100%
Cc1c(NC(=O)c2cc(C(N)=O)nc3cc(F)ccc23)c(C(F)(F)F)nn1Cc1ccc(C#N)cc1	92%

Excerpt of the above (sample 4):
SMILES	remaining binding
NS(=O)(=O)c1cc(NC(=O)C2(c3ccccc3Cl)CC2)ccc1Oc1cccc(Cl)c1	89%
Cc1c(NC(=O)c2cc(C(N)=O)nc3cc(F)ccc23)c(C(F)(F)F)nn1Cc1ccc(C#N)cc1	92%
C[C@H](NC(=O)c1cnc2n1[C@](C)(Cc1ccc(C#N)cc1)C(=O)N2c1cc(Cl)c(F)c(Cl)c1)C(=O)NC1(c2ccccn2)CC1	100%
